Experimental data from different studies.
Each line is one published result; not all experiments were run side by side.
Cell line: HCT-15

With COc1cc(CNC(=O)C[C@H](C)CCC=C(C)C)ccc1OCc1cn(-c2ccc(Cl)cc2Cl)nn1 the growth percent was 79.6% (SRB; 10 µM, 48 h).
For COc1cc(/C=C/C(=O)/C=C(O)/C=C/c2ccc(OCC(=O)N3CCOCCOCCOCCOCC3)c(OC)c2)ccc1OCC(=O)N1CCOCCOCCOCCOCC1, the inhibition was 18.1% (cell growth or viability, SRB; 5 µM).
The GI50 of CC/C=C\C/C=C\C/C=C\C/C=C\C/C=C\C/C=C\CCC(=O)Nc1ccn(C2OC(CO)C(O)C2(F)F)c(=O)n1 (centres unmarked) is reported as 1.86 µM (cell growth or viability, SRB).
The growth percent of COc1cc(CNC(=O)C[C@H](C)CCC=C(C)C)ccc1OCc1cn(-c2ccc(Cl)c(Cl)c2)nn1 is reported as 29.4% (SRB; 10 µM, 48 h).
For CC(=O)OC[C@H]1O[C@@H](Sc2sc(C(=O)c3ccc(C)cc3)c(N)c2-c2nc3ccccc3s2)[C@H](OC(C)=O)[C@@H](OC(C)=O)[C@@H]1OC(C)=O, the growth was 39.3% (SRB; 10 µM, 48 h; baseline: untreated).
With COc1cc(CNC(=O)C[C@H](C)CCC=C(C)C)ccc1OCc1cn(-c2ccc(F)cc2)nn1 the growth percent was 91.7% (SRB; 10 µM, 48 h).
Fc1cccc(CNc2nc(NCc3ccccc3)c3ccccc3n2)c1 gave a GI50 of 3.4 µM (cell growth or viability; 24 h).
The growth percent of COc1cc(CNC(=O)C[C@H](C)CCC=C(C)C)ccc1OCc1cn(-c2ccccc2[N+](=O)[O-])nn1 is reported as 62.4% (SRB; 10 µM, 48 h).
The GI50 of COc1cccc2c(NCc3ccccc3)nc(Nc3cccc(Cl)c3)nc12 is reported as 29 µM (cell growth or viability; 24 h).
The GI50 of CC(=C(c1ccc(O)cc1)c1ccc(Cl)cc1)c1ccc(Cl)cc1 is reported as 0.74 µM (cell growth or viability, SRB).
COc1cc(CNC(=O)C[C@H](C)CCC=C(C)C)ccc1OCc1cn(-c2cccc(C(F)(F)F)c2)nn1 gave a growth percent of 56.8% (SRB; 10 µM, 48 h).
COc1ccc(C2=Nn3c(NN=C4C(=O)N(Cc5ccccc5)c5ccc(Cl)cc54)nnc3SC2)cc1 gave an inhibition of 43% (cell growth or viability, SRB; 10 µM).
For Clc1cccc(Nc2nc(NCc3ccccc3)c3ccccc3n2)c1, the GI50 was 2.5 µM (cell growth or viability; 72 h).
With COc1cc(CNC(=O)C[C@H](C)CCC=C(C)C)ccc1OCc1cn(-c2cccc([N+](=O)[O-])c2)nn1 the growth percent was 80.9% (SRB; 10 µM, 48 h).
COc1cccc(CNc2nc(NCc3ccccc3)c3ccccc3n2)c1 gave a GI50 of 4.4 µM (cell growth or viability; 24 h).
CC(=O)OC[C@H]1O[C@@H](Sc2sc(C(=O)c3ccc(Br)cc3)c(N)c2-c2nc3ccccc3s2)[C@H](OC(C)=O)[C@@H](OC(C)=O)[C@H]1OC(C)=O gave a growth of 91.3% (SRB; 10 µM, 48 h; baseline: untreated).
Brc1cccc(CNc2nc(NCc3ccccc3)c3ccccc3n2)c1 has a GI50 of 3.5 µM (cell growth or viability; 72 h).
COc1cc(/C=C/C(=O)/C=C(O)/C=C/c2ccc(OCC(=O)N3CCOCCOCCOCCOCCOCC3)c(OC)c2)ccc1OCC(=O)N1CCOCCOCCOCCOCCOCC1 gave an inhibition of 15.7% (cell growth or viability, SRB; 5 µM).
The GI50 of COc1cccc2c(NCc3ccccc3)nc(NCc3cccs3)nc12 is reported as 0.7 µM (cell growth or viability; 72 h).
The GI50 of CC(=O)c1cccc(NC2C(N)C(NC(=O)N(C)C)(C(C)O)C(O)C2(O)COC(=O)c2c(C)cccc2O)c1 (centres unmarked) is reported as 0.16 µM (cell growth or viability, SRB).

For quick reference, copied from above:
The GI50 of CC/C=C\C/C=C\C/C=C\C/C=C\C/C=C\C/C=C\CCC(=O)Nc1ccn(C2OC(CO)C(O)C2(F)F)c(=O)n1 (centres unmarked) is reported as 1.86 µM (cell growth or viability, SRB).
COc1ccc(C2=Nn3c(NN=C4C(=O)N(Cc5ccccc5)c5ccc(Cl)cc54)nnc3SC2)cc1 gave an inhibition of 43% (cell growth or viability, SRB; 10 µM).
